# Measurements of several laboratories.
# Numbered parts are unrelated; each lists some results of a single study. Values joined by “and” are separate records of one study, mostly repeats; a detail may differ.
# Chain of UniProt O94768 (whole entry, looked up): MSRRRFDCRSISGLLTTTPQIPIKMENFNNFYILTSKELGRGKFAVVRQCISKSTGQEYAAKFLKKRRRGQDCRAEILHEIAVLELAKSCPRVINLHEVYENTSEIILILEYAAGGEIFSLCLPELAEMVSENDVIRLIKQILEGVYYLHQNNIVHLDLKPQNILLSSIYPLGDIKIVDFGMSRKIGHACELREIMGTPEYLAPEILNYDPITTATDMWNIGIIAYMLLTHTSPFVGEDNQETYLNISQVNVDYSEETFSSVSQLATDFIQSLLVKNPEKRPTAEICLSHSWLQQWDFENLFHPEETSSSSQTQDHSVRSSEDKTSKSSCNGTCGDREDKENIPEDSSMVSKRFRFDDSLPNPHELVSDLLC
# Chain of UniProt O95835 (whole entry, looked up): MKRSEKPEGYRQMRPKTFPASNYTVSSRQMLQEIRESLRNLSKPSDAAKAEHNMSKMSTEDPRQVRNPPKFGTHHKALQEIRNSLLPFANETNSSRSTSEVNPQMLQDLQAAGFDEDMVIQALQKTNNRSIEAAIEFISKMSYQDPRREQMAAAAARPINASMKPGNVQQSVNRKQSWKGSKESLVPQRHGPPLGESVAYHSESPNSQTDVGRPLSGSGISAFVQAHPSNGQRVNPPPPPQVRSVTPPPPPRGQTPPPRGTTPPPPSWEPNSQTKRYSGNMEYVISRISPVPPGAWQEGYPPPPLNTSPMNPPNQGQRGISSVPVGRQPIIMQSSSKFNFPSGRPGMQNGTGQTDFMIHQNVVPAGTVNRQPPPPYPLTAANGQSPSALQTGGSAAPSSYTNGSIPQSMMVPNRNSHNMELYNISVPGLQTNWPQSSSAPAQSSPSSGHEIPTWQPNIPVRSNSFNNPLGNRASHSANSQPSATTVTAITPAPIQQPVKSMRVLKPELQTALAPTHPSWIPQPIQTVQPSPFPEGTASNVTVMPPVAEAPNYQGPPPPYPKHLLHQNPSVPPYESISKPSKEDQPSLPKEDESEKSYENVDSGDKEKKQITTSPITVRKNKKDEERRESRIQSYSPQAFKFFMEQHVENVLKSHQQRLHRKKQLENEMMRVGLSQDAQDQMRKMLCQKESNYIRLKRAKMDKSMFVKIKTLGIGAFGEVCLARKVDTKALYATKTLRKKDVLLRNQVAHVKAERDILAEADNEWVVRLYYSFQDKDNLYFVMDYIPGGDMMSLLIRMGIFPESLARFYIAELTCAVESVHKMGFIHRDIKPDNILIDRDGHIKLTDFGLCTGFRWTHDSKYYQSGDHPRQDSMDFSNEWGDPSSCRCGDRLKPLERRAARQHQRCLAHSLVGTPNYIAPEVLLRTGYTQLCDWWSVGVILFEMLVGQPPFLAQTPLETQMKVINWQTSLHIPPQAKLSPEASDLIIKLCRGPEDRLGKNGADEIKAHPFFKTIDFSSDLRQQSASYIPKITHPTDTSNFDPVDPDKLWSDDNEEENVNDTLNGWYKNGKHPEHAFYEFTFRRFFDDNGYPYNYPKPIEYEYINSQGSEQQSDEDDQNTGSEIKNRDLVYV
# Chain of UniProt Q07002 (whole entry, looked up): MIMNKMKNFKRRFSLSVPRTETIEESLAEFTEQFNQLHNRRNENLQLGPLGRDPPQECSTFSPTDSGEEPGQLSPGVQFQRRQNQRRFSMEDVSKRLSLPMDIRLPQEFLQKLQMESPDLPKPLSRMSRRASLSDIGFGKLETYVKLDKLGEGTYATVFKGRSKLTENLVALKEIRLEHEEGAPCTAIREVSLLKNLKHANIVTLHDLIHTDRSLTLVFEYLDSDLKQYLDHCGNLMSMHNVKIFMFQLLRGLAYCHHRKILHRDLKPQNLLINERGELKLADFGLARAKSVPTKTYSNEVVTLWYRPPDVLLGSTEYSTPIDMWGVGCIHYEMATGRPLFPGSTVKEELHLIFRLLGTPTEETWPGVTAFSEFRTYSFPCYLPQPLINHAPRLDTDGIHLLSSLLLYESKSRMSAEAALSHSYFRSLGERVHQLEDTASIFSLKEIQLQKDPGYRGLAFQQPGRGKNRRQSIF

# Set 1
# SMILES: CC(C)n1cnc(-c2ccc(F)cc2)c1-c1ncc(C(=O)Nc2ccc(N3CCN(C)CC3)cc2)[nH]1
# Method: phase 2a trial
# Host: idiopathic pulmonary fibrosis patients
conditions,patients with bronchitis [%]
"30 mg once daily, grade 4 emergent event",0
"60 mg once daily, grade 5 emergent event",0
"30 mg once daily, grade 5 emergent event",0
"60 mg once daily, grade 1 emergent event",0
"60 mg once daily, grade 4 emergent event",0
"30 mg once daily, grade 1 emergent event",0
"60 mg once daily, grade 2 emergent event",0

# Set 2
# Compound: CN(c1ccnc(CNc2nc(Nc3ccc4c(c3)CC(=O)N4)ncc2C(F)(F)F)n1)S(C)(=O)=O
# Effect on: cell-free assay
# Method: competition with immobilised ligand
# Tested at: 1 µM
target,remaining binding
"STK24 (Homo sapiens, UniProt Q9Y6E0)",93%
"PNCK (Homo sapiens, UniProt Q6P2M8)",66%
"PRKACB (Homo sapiens, UniProt P22694)",88%
"PRKACA (Homo sapiens, UniProt P17612)",81%
"GRK2 (Homo sapiens, UniProt P25098)",31%
"DAPK1 (Homo sapiens, UniProt P53355)",15%
"RIPK2 (Homo sapiens, UniProt O43353)",82%
"Ribosomal protein S6 kinase alpha-5, C-terminal kinase domain (RPS6KA5, Homo sapiens, UniProt O75582)",78%
"CHEK1 (Homo sapiens, UniProt O14757)",57%
"CSNK1G1 (Homo sapiens, UniProt Q9HCP0)",100%
"PAK5 (Homo sapiens, UniProt Q9P286)",76%
"Tyrosine-protein kinase ABL1, non-phosphorylated (ABL1, Homo sapiens, UniProt P00519, T315I)",36%
"STK17B (Homo sapiens, UniProt O94768)",48%
"LIM domain kinase 1 (LIMK1, Homo sapiens, UniProt P53667)",97%
"MAP3K5 (Homo sapiens, UniProt Q99683)",100%
"BRAF (Homo sapiens, UniProt P15056, V600E)",68%
"ACVR2B (Homo sapiens, UniProt Q13705)",73%
"EGFR (Homo sapiens, UniProt P00533, G719C)",86%
"ANKK1 (Homo sapiens, UniProt Q8NFD2)",84%
"MAPK4 (Homo sapiens, UniProt P31152)",57%
"FLT3 (Homo sapiens, UniProt P36888, R834Q)",30%
"PIK3CA (Homo sapiens, UniProt P42336, E545A)",90%
"CDK5 (Homo sapiens, UniProt Q00535)",79%
"GSK3A (Homo sapiens, UniProt P49840)",64%
"CDC42BPA (Homo sapiens, UniProt Q5VT25)",80%

# Set 3
# Target: Calcium/calmodulin-dependent protein kinase type II subunit alpha (CAMK2A, Homo sapiens, UniProt Q9UQM7)
# Chain of UniProt Q9UQM7 (whole entry, looked up): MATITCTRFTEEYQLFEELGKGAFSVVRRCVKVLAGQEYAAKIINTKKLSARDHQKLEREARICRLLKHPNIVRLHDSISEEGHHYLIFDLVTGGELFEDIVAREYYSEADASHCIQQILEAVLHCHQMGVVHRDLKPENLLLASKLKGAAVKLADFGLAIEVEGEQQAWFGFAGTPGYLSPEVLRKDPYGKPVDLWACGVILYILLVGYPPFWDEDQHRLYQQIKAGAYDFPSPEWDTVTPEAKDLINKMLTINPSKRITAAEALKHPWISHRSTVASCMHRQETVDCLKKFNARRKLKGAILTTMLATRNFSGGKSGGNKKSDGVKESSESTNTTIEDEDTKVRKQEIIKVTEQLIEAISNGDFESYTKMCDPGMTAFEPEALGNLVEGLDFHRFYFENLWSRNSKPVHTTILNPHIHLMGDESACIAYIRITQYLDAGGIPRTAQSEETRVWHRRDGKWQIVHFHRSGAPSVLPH
# Effect on: enzyme activity
# Mode: inhibitor
# Tested at: 10 µM
Structure (SMILES),inhibition [%]
NCCCCCN,-48
O=c1cc(CO)occ1O,-17
O=C(/C=C/c1ccc(O)c(O)c1)c1ccc(O)c(O)c1O,-28
C=CC(C)(O)CCC=C(C)C (stereo not drawn),-23
C[C@@H]1O[C@@H](OC[C@H]2O[C@@H](OCCc3ccc(O)c(O)c3)[C@H](O)[C@@H](O[C@@H]3O[C@@H](C)[C@H](O)[C@@H](O)[C@H]3O)[C@@H]2OC(=O)/C=C/c2ccc(O)c(O)c2)[C@H](O)[C@H](O)[C@H]1O,-8
O=C(CO)[C@@H](O)[C@H](O)[C@@H](O)CO,30
O=C(OC1Cc2c(O)cc(O)cc2OC1c1cc(O)c(O)c(O)c1)c1cc(O)c(O)c(O)c1 (stereo not drawn),-63
COc1ccc2c(O[C@@H]3C[C@H]4C(=O)N[C@]5(C(=O)NS(=O)(=O)C6CC6)C[C@H]5/C=C\CCCCN(C)C(=O)[C@@H]4C3)cc(-c3nc(C(C)C)cs3)nc2c1C,0
C=C1C(=O)O[C@H]2C1CC[C@@](C)(O)C13C=CC(C)(C21)C1(C3)C(=O)O[C@@H]2C3C(C)=CCC3[C@](C)(O)[C@H](OC(C)=O)CC21 (stereo partly drawn),-26
C=C[C@@H]1CNC(=S)O1,-15
Cc1coc2c1C(=O)c1ccc3c(c1C2=O)CCCC3(C)C,24
CC(C)(C)c1ccc(CN2CCN(C(c3ccccc3)c3ccc(Cl)cc3)CC2)cc1 (stereo not drawn),-11

# Set 4
# Target: DNA polymerase theta, ATPase domain (POLQ, Homo sapiens, UniProt O75417)
# Chain of UniProt O75417 (whole entry, unmodified, looked up): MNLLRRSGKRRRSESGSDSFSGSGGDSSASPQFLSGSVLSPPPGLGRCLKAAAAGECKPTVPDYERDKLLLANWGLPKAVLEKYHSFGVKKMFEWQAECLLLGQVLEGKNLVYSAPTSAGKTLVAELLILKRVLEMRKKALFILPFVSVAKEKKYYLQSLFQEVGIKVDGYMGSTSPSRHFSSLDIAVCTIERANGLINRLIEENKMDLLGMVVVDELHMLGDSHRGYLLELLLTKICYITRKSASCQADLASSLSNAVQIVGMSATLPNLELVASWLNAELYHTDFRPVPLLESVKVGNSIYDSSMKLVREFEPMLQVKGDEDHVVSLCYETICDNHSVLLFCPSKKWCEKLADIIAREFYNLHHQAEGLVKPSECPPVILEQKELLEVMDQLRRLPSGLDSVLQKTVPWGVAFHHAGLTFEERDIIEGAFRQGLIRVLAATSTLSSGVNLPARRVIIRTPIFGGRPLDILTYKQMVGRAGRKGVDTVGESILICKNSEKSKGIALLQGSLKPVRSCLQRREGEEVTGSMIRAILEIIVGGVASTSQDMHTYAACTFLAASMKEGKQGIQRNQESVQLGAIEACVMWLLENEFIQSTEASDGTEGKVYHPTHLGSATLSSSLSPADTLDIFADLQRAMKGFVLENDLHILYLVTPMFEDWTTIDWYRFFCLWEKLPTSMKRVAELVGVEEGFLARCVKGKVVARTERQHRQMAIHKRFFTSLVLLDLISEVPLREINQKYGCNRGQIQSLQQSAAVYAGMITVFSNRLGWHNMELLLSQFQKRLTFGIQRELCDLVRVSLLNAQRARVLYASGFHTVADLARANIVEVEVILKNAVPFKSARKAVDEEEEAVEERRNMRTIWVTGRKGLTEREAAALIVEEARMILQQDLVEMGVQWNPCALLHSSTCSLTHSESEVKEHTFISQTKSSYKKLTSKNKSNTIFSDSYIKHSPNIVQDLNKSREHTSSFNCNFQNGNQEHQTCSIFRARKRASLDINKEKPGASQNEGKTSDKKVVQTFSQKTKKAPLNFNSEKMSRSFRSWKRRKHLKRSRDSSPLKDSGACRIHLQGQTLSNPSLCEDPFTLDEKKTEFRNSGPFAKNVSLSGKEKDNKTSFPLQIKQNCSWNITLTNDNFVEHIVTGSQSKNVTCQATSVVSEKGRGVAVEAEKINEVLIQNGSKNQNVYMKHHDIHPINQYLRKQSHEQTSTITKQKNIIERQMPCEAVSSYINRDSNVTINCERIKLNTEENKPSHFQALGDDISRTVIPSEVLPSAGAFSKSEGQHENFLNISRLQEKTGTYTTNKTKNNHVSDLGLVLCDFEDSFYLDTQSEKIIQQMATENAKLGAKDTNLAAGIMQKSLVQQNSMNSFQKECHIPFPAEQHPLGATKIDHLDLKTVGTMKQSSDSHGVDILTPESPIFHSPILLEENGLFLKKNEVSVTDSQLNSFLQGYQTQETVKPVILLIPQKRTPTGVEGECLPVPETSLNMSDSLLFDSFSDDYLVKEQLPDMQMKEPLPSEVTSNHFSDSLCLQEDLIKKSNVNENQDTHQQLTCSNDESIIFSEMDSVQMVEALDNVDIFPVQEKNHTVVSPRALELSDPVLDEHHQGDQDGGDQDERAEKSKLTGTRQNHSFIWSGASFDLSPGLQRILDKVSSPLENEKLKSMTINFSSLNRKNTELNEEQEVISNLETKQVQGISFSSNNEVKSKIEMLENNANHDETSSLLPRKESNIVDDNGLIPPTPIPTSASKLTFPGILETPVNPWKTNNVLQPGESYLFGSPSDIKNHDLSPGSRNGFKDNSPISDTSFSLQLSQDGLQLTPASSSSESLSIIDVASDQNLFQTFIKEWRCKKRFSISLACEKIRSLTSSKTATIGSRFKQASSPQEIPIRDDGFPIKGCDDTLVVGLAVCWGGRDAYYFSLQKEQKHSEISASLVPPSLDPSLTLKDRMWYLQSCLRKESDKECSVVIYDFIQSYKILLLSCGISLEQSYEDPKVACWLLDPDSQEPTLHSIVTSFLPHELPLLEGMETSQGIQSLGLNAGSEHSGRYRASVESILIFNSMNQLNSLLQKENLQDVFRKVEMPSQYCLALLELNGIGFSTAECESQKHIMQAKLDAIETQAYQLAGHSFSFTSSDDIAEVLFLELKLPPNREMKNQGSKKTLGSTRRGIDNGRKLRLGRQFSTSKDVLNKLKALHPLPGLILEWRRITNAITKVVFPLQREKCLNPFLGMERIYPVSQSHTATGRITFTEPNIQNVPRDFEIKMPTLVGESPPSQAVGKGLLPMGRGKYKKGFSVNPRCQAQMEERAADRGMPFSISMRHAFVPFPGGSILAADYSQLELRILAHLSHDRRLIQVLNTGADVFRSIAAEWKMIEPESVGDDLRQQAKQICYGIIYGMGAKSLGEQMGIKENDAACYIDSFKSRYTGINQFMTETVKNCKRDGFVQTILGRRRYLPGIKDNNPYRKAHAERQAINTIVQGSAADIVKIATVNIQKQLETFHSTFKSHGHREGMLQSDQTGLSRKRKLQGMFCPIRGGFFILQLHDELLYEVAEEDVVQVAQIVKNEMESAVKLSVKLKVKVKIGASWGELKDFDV
# Effect on: enzyme activity
# Mode: inhibitor
# Tested at: 77 µM
# Baseline: untreated
SMILES,remaining activity
O=C(CCCc1ccc(-c2ccccc2F)cc1)Nc1ccc(O)cc1,106%
O=C(Nc1cc(C(F)(F)F)ccc1N1CCCCC1)c1ccncc1,101%
CCC[S+]([O-])c1ccc2[nH]c(NC(=O)OC)nc2c1 (stereo not drawn),84.3%
CCn1cc(C(=O)O)c(=O)c2cc3c(cc21)OCO3,97.5%
C=C1C(=O)[C@]23[C@H](O)[C@H]1CC[C@H]2[C@@]12CO[C@]3(O)[C@@H](O)[C@@H]1C(C)(C)CC[C@@H]2O,80.3%
CCc1cc(C(N)=S)ccn1,93.4% and 100%
CC1(C)S[C@@H]2[C@H](NC(=O)[C@H](NC(=O)N3CCNC3=O)c3ccccc3)C(=O)N2[C@H]1C(=O)O,99% and 96.6%

# Set 5
# SMILES: Cc1nc(Nc2ncc(C(=O)Nc3c(C)cccc3Cl)s2)cc(N2CCN(CCO)CC2)n1
# Mode: inhibitor
target,conditions,inhibition
"MAPK6 (Homo sapiens, UniProt Q16659)",10 µM,< 50%
"MST1R (Homo sapiens, UniProt Q04912)",1 µM,< 50%
"MAPK15 (Homo sapiens, UniProt Q8TD08)",10 µM,< 50%
"TLK1 (Homo sapiens, UniProt Q9UKI8)",10 µM,< 50%
"PTK2 (Homo sapiens, UniProt Q05397)",1 µM,< 50%
"CSNK1G3 (Homo sapiens, UniProt Q9Y6M4)",10 µM,< 50%
"LATS1 (Homo sapiens, UniProt O95835)",10 µM,< 50%
"CDK18 (Homo sapiens, UniProt Q07002)",10 µM,< 50%
"CAMK2B (Homo sapiens, UniProt Q13554)",10 µM,< 50%

# Repeated from above (set 2):
target,remaining binding
"RIPK2 (Homo sapiens, UniProt O43353)",82%
"STK24 (Homo sapiens, UniProt Q9Y6E0)",93%
"ANKK1 (Homo sapiens, UniProt Q8NFD2)",84%
"PAK5 (Homo sapiens, UniProt Q9P286)",76%
